Assay results collected from several papers.
Lines come from different studies, so protocols differ.
FLT3 R834Q: Receptor-type tyrosine-protein kinase FLT3 (FLT3, Homo sapiens, UniProt P36888, R834Q)
FLT3: Receptor-type tyrosine-protein kinase FLT3 (FLT3, Homo sapiens, UniProt P36888)
FLT3 autoinhibited: Receptor-type tyrosine-protein kinase FLT3, autoinhibited (FLT3, Homo sapiens, UniProt P36888)
FLT3 D835Y: Receptor-type tyrosine-protein kinase FLT3 (FLT3, Homo sapiens, UniProt P36888, D835Y)

CCN1CCN(Cc2ccc(C(=O)Nc3ccc(C)c(NCc4cnc5[nH]ccc5c4OC)c3)cc2C(F)(F)F)CC1  remaining binding (FLT3 R834Q; binding, competition with immobilised ligand; 1 µM): 4.7%
COc1c(Cl)cccc1Nc1c(-c2ccncc2C#C[C@@]2(C)CCCN2C(=O)/C=C/CN(C)C)[nH]c2c1C(=O)NCC2  remaining binding (FLT3; binding, competition with immobilised ligand; 3 µM): 100%
C=CC(=O)N1CCc2ccc(-n3c(=O)ccc4cnc5ccc(-c6cnn(C)c6)cc5c43)cc21  remaining binding (FLT3 autoinhibited; KINOMEscan; 1 µM; reference: DMSO control): 95%
CNC(=O)C1CCN(c2cc(C)c(F)cc2NC(=O)c2ccc(-c3cc(O)ccc3C)c(C)c2)CC1  remaining binding (FLT3 autoinhibited; binding, competition with immobilised ligand; 1 µM): 53%
Cc1cnc2nc1Nc1cccc(c1)COC/C=C/COCc1cc(ccc1OCCN1CCOCC1)N2  remaining binding (FLT3 D835Y; binding; 0.1 µM): 1.8%
C=CC(=O)N1CCCC(n2c(=O)c3ncccc3n(Cc3ccc(Oc4ccccc4)cc3)c2=O)C1 (stereo not shown)  remaining binding (FLT3 D835Y; binding, competition with immobilised ligand; 1 µM): 100%
CC(C)=CC1OC(C)(C)C2C=C3C(=O)C(Cl)=CC(O)C3C3C(O)C4OC4C(=O)C132 (stereo not shown)  remaining binding (FLT3 autoinhibited; cell-free assay, competition with immobilised ligand; 10 µM): 71%
Nc1ncc2c(n1)-c1c([nH]c3ccc(C4=CCOCC4)cc13)CCC2  remaining binding (FLT3; binding, competition with immobilised ligand; 1 µM): 100%
COc1cc(Nc2nccc(-c3cnn4nc(OC)ccc34)n2)cc(C(F)(F)F)c1  remaining binding (FLT3 D835Y; binding; 1 µM): 100%
CNC1C[S+]2CC[S+]3CC[S+](C1)[Ru-4]321([N]=C=S)[n]2c3ccc(OC)cc3c3c4c(c5cc(F)c[n+]1c5c32)C(=O)NC4=O (stereo not shown)  remaining binding (FLT3 R834Q; KinomeScan; 0.1 µM; reference: untreated): 44%

Some of these lines once more:
CNC1C[S+]2CC[S+]3CC[S+](C1)[Ru-4]321([N]=C=S)[n]2c3ccc(OC)cc3c3c4c(c5cc(F)c[n+]1c5c32)C(=O)NC4=O (stereo not shown)  remaining binding (FLT3 R834Q; KinomeScan; 0.1 µM; reference: untreated): 44%
